Experimental data of several laboratories.
Every numbered part comes from another study and shows a few of its results, in no order. Changes are numbered by the printed parent chain.

Block 1
Target: Sal-like protein 4, full length isoform B (SALL4, Homo sapiens, UniProt Q9UJQ4-2, residues 1-616)
Method: universal PBM
Form: double-stranded DNA, one strand shown
Matrix: in vitro
Tested at: not given
Notes: 8-mer, flanks averaged, mean of replicates
Reading: higher = stronger binding
`GTCGGGTA` gave an E-score of -0.17.
The E-score of `GACCCCCC` is reported as -0.349.
The E-score of `CACGGGTA` is reported as -0.135.
For `CCTACTCA`, the E-score was -0.152.
For `ACTTGCTC`, the E-score was 0.0327.
`ACACAGAC` has an E-score of 0.0531.
With `ACAACTAG` the E-score was -0.054.
With `AGCTCTCA` the E-score was -0.183.
`CATTACAC` has an E-score of 0.104.
With `GCGCTACA` the E-score was 0.0409.
With `GCCTACAC` the E-score was -0.0856.
`GCCAAGGC` gave an E-score of -0.239.
`AAATTTGC` has an E-score of 0.22.
With `CATCCATG` the E-score was -0.00048.
For `AATACAGA`, the E-score was 0.228.
For `ACCCTGAC`, the E-score was -0.185.
With `GGGTCACC` the E-score was -0.324.
`ATACGCTG` has an E-score of 0.0162.
For `TAGGAACA`, the E-score was 0.101.
`GTGTGATA` gave an E-score of 0.253.
For `CCCGAGAC`, the E-score was -0.24.
For `CCTGTATA`, the E-score was 0.145.
With `TCCCGAGA` the E-score was -0.201.
`TAGCATGA` gave an E-score of 0.118.
With `GCGGTCGA` the E-score was -0.136.

Block 2
Target: ABI1, truncated, D143A, DHFR fusion (Arabidopsis thaliana)
Method: DHFR PCA, deep sequencing
Matrix: yeast
Notes: methotrexate growth selection, single substitutions
With: (+)-ABA 710 µM
Relative to: wild-type fitted maximum
Reading: higher = stronger binding
Parent: PYL1, truncated, DHFR fusion (Arabidopsis thaliana); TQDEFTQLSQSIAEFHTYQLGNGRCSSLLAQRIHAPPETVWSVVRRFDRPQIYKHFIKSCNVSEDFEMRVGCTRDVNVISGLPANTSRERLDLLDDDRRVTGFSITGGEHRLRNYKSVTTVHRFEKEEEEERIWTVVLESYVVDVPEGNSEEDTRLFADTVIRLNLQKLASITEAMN
`R99Y` — result for “relative binding score”: 111%.
Under “relative binding score”, `E4A` is recorded as 97.7%.
For `S117F`, “relative binding score” read 3.7%.
`F66P` — result for “relative binding score”: 92.1%.
Under “relative binding score”, `T120S` is recorded as 111%.
`E4I`: “relative binding score” 102%.
For `P146H`, “relative binding score” read 51%.
Under “relative binding score”, `K126G` is recorded as 111%.
`T86H` — result for “relative binding score”: 111%.
Under “relative binding score”, `Y141S` is recorded as -4.57%.
Under “relative binding score”, `E127G` is recorded as 110%.
`K116L`: “relative binding score” 47.1%.
Under “relative binding score”, `V44K` is recorded as 54.1%.
Under “relative binding score”, `D159A` is recorded as 85%.
For `E64D`, “relative binding score” read 104%.
Under “relative binding score”, `D144A` is recorded as 82.4%.
Under “relative binding score”, `H122S` is recorded as 84.4%.
For `C60G`, “relative binding score” read 30.3%.
Under “relative binding score”, `G81R` is recorded as 48.7%.
Under “relative binding score”, `S9N` is recorded as 93.9%.
`Y141R`: “relative binding score” -3.81%.
`N61D` — result for “relative binding score”: 98.2%.
`L164Q` — result for “relative binding score”: 98.6%.
`T1A`: “relative binding score” 105%.

Block 3
Target: RING finger protein unkempt homolog, zinc fingers 1-6, GST-SBP tag (UNK, Homo sapiens, UniProt Q9C0B0, residues 30-357)
Chain of UniProt Q9C0B0 (30-357, looked up): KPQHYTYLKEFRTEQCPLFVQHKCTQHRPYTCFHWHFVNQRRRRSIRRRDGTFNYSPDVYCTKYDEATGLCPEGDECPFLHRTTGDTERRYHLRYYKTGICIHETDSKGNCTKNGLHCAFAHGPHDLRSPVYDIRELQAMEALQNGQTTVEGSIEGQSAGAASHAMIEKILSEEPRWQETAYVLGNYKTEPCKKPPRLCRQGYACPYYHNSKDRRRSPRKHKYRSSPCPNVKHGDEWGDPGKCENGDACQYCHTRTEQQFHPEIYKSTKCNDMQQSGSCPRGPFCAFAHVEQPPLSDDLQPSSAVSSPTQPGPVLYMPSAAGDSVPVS
Method: RNA Bind-n-Seq
Form: RNA
Matrix: in vitro
Tested at: not given
Notes: RNA with constant flanks, human and mouse sites, ends assumed
Relative to: input RNA pool
Reading: higher = stronger binding
`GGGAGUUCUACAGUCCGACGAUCGAAGAUGAAGCUAAUGUAGCCUGGAAGUAUUACAAAGUCCCAAAGAAAAAAGAUGUAGAAUUUUUACCACCUCAACUUCCAAAUGAUAAAUUCAAGGAUGAUCCAGUUGGACCUUUUGGACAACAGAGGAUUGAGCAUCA` gave a bound/input enrichment of 0.386 ratio.
With `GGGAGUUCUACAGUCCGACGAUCUUAAAUUCUUCACCCCCAUCCCCUUUUUUUGUGCUAAUUAGCAUCUCAGGGCAAUGCCUCAAAAAUGUUUGAUGUGUUCUGUUCUUUGGAGGGAAAAAGUUCUUAUGUGAUGAUAAUAUACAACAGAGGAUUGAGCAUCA` the bound/input enrichment was 0.873 ratio.
The bound/input enrichment of `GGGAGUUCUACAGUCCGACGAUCAUUCCUUUGGAAACAGGACAAAAACAGUACAAUGUAGAUUAUAAACUGGAGACUUACUUGAAGAUUGCUAGGCUAUAUCUGGAGGAUGAUGAUCCAGUCCAGGCAGAGGCUUACAUAAAUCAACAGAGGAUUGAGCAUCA` is reported as 0.227 ratio.
`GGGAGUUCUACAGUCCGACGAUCGCUAGCCAGUCUGGAGCAACAUUCUUCAGCAUCUCUGCUUCAUCGUUGACUUCUAAGUGGGUAGGUGAGGGAGAAAAAAUGGUCCGUGCACUGUUUGCUGUUGCCAGGUGUCAGCAGCCACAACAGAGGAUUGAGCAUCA` has a bound/input enrichment of 0.155 ratio.
The bound/input enrichment of `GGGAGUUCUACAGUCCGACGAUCGUCAAAGAAUUGGCAAAUCAAAGAAAAUCAAGAGCCAAUGAACUGGCGGGGAACCUCGCAUCUCGAAGGGUGAGUGUCGCCUCUGAUCCUGGUCGACGAGGUCAGCACAAUACGUUGAGUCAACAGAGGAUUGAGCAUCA` is reported as 0.203 ratio.
For `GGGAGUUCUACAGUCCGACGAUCGAGAGCUUUAUUACCAGACAUGACCUUUCCGGAAAGGUUGUCAAUAUAGAUACAAACUCACUUAGAUCUUCCAUGAGGCCUGGCUUUGAAGACAUAAUCCGAAGAUGUAUCCAGAGGUUCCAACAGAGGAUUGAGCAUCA`, the bound/input enrichment was 0.318 ratio.
With `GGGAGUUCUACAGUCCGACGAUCCCUGUGUGUCACUUCCCUCACCUCACAGGCUGUGACCCUACCCUGGGUCCCUUGUACAUAACUCCUUGUGACAAAACCCUCUGGAAGUUCUGGACCCCAUUUUUGAUAGGCUUUUUUGUCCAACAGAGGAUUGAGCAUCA` the bound/input enrichment was 0.895 ratio.
The bound/input enrichment of `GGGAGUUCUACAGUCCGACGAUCGACAUUCUUCUCCUUGUUGUCCGAUUGGCUGUGCUGGUGGCUGUCACCCUCACGGUCCCAGUAGUUAUUUUCCCUAUCCGGAGUUCCGUCACUCACUUACUGUGUCCCACAAAAGAGUUCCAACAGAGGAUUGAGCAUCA` is reported as 0.492 ratio.

Block 4
Target: human cyclin B2
Observed: peptide binding
Method: yeast competitive growth sequencing
Form: peptide
Organism: Saccharomyces cerevisiae
Strain: cyclin B2-Cln2 fusion
Tested at: concentration not given
Notes: RxL motif peptides
Reading: direction not given
`PRARKRLELGNLG` — result for “binding enrichment score”: 0.825.
`ARYKRKLLINDFG`: “binding enrichment score” 0.81.
`FVPQRKLEVSTED`: “binding enrichment score” -0.373.
`PPARRRLRLSVDE` — result for “binding enrichment score”: 0.481.

Block 5
Target: Ras GTPase-activating protein-binding protein 1, full length (G3BP1, Homo sapiens, UniProt Q13283)
Chain of UniProt Q13283 (whole entry, looked up): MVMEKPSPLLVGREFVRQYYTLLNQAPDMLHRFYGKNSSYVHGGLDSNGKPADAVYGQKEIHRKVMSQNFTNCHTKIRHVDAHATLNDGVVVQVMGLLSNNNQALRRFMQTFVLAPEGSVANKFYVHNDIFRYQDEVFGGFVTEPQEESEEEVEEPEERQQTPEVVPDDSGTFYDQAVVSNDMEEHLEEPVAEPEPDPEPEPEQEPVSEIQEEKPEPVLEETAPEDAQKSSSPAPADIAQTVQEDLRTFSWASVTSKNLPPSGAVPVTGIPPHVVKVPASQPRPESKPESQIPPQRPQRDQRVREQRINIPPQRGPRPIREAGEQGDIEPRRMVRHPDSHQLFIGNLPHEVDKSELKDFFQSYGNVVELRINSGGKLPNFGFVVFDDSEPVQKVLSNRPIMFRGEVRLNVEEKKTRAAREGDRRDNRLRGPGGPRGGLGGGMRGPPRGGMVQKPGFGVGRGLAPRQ
Method: RNA Bind-n-Seq
Form: RNA
Matrix: in vitro
Tested at: 200 nM
Notes: whole 134-nt RNA, ends assumed
With: 150 mM KCl
Relative to: input library
Reading: higher = stronger binding
With `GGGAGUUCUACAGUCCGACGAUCGUGCUACACAUCGUAUGUACCGAAUCGGGGAAAAAAAGGGGUUUUUUUGGGGAAAAAAAGGGGAAAGUAUUAUGUUACGCCGUUCGGAUCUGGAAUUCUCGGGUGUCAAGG` the log2 enrichment was -0.26.
The log2 enrichment of `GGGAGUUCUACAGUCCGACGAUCCUCAAGUCCUGUGCUACACAUCGUAUGUACCGAAUCGGUGGAAAAAGGAAAGGAAAGUAUUAUGUUACGCCGUUCGGAUCUGCACUUCCAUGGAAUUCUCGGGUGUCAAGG` is reported as -0.402.
With `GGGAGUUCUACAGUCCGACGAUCCAAGUCCUGUGCUACACAUCGUAUGUACCGAAUCGGUUUGGGGUUUGGGGUUUGGGAAAGUAUUAUGUUACGCCGUUCGGAUCUGCACUUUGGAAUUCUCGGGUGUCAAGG` the log2 enrichment was -0.169.
With `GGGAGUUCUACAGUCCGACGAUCCCUGUGCUACACAUCGUAUGUACCGAAUCAAAUUUUUUUAAAUUUUUUUAAACCCCCAAAAAAGUAUUAUGUUACGCCGUUCGGAUCUGCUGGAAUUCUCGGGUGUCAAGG` the log2 enrichment was -0.0897.
For `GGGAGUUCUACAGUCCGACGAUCAAGUCCUGUGCUACACAUCGUAUGUACCGAAUCGGCCCCGGGGCCCCGGCCCCGGGGAAAGUAUUAUGUUACGCCGUUCGGAUCUGCACUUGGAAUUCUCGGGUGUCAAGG`, the log2 enrichment was -1.38.
`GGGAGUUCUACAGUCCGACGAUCACCAUGCAGGUGGGCAUCUUUGGGAAGUGGGGCAAGGGGGGGAUAGGGAGGGGGGUAACAGUUUGGGAACAGGUGGUCCCAGGUCGUUUCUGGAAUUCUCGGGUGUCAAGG` gave a log2 enrichment of 1.3.
`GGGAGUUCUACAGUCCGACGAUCGUCCUGUGCUACACAUCGUAUGUACCGAAUCGGGGUUUUGGGUUUUGGGGUUUUGGGGAAAGUAUUAUGUUACGCCGUUCGGAUCUGCACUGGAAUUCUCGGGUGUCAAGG` has a log2 enrichment of 0.123.
`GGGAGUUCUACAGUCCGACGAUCUGGGAGGUGGAUUUUGUUUAUUUUUUUAGCUCAUUUCCAGGGGUGGGAAUUUUUUUUUAAUAUGGGUCAUGAAUAAAGUUGUUUUUGAAAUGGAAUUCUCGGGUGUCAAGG` gave a log2 enrichment of 0.105.
`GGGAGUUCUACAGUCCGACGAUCCCUCAAGUCCUGUGCUACACAUCGUAUGUACCGAAUCGGAAAGGAGGAAAGGAAAGUAUUAUGUUACGCCGUUCGGAUCUGCACUUCCAGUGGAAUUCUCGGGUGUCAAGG` has a log2 enrichment of -0.0438.

Some of these lines once more (block 2):
For `C60G`, “relative binding score” read 30.3%.
Under “relative binding score”, `T120S` is recorded as 111%.
Under “relative binding score”, `S9N` is recorded as 93.9%.
For `S117F`, “relative binding score” read 3.7%.
